Measured values from different studies.
Each numbered part is a random draw from the data of one study; scales do not carry over between parts.

Sample 1
Target: Centromere-binding protein 1, full length, His-tagged (CBF1, Saccharomyces cerevisiae, UniProt P17106, residues 1-351)
Sequence of UniProt P17106 (whole entry, looked up): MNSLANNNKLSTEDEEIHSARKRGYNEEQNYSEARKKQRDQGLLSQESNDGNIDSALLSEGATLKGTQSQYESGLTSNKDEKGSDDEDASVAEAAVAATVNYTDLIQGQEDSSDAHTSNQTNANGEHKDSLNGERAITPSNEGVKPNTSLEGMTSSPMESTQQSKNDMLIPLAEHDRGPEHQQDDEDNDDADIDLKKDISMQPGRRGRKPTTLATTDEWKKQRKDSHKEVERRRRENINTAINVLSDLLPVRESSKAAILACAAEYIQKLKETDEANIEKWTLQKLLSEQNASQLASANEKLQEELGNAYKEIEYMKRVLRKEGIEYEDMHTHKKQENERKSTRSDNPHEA
Technique: competition protein-binding microarray
Molecule type: double-stranded DNA, one strand shown
Matrix: in vitro
Concentration: 2 µM
Setting: whole 60-bp probe, lowest competitor level
Added: Pho4 competitor, 0.05 µM
Reading: higher = stronger binding
Quantity: fluorescence intensity
CTTCTGTAAATTTGCCCAGTGGGTGGACGCGCCCCGGTCTTGATTCGCTTGACGCTGCTG: 81.2 a.u.
ACAATTTCAACCATCCTCGTGTCCTTGTTGTTATCTGTCTTGATTCGCTTGACGCTGCTG: 115 a.u.
AAATTACTAAGTTTTCACGTGCACTACCCCGTATGAGTCTTGATTCGCTTGACGCTGCTG: 1260 a.u.
TTTGCCTCGGCCTGCCGCGTGGTGATGGTAGTTTGAGTCTTGATTCGCTTGACGCTGCTG: 72 a.u.

Sample 2
Target: Interferon regulatory factor 7, full length, phosphomimetic (IRF7, Homo sapiens, UniProt Q92985, residues 1-503, S471D/S472D/S475D/S476D/S477D/S483D/S484D/S487D)
Sequence of UniProt Q92985 (whole entry, unmodified, looked up): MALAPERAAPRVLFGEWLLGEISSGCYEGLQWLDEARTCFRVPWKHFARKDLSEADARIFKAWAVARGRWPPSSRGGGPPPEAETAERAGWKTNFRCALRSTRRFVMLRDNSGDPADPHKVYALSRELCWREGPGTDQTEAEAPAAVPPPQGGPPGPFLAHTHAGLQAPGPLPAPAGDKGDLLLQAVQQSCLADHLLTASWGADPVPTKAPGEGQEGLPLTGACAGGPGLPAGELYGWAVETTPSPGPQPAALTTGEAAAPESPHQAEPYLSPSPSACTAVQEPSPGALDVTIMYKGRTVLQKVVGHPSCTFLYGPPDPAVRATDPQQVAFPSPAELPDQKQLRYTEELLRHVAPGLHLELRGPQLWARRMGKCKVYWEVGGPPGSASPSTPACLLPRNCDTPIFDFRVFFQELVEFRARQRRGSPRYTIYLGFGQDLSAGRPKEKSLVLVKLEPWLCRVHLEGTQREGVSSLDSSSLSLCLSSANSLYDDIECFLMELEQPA
Technique: protein-binding microarray
Molecule type: double-stranded DNA, one strand shown
Matrix: in vitro
Concentration: 2200 nM top
Setting: 60-bp whole probe
Added: salmon DNA 0.4 mg/ml
Reference: random background probes
Reading: higher = stronger binding
Quantity: fitted relative affinity
Constant ends, left off below: GCCTAGCAC … GTCTTGATTCGCTTGACGCTGCTG
TCTTCCTTTACTTTCTTTTTGTGCTAG: 6.18 z-score
GACGATTTCGGGTATCGATACGTGCTA: 3.14 z-score
TCATGTGCCCATCTCTGACTGTGCTAG: 0.76 z-score
GACGATATCATTCTCGAGACGTGCTAG: 0.512 z-score
TTAGGACTGGATCTCGGTTAGTGCTAG: 0.158 z-score

Sample 3
Target: Histone acetyltransferase KAT6A, winged helix 2, GST fusion (KAT6A, Homo sapiens, UniProt Q92794, residues 85-181)
Technique: protein binding microarray
Molecule type: double-stranded DNA, one strand shown
Matrix: in vitro
Concentration: not given
Setting: 8-mer, flanks averaged, mean of 2 arrays, mostly near background
Reference: not given
Reading: higher = stronger binding
Quantity: E-score
Residues (chain): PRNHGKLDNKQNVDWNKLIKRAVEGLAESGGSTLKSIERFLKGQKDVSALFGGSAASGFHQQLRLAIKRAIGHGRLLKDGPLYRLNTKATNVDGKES
AGCTACGG: -0.0706
ATTTATGA: 0.0598
AAAGCTTG: -0.0844
ACGGCTCA: 0.0794
CCACCTGA: -0.0972
AGGAAACT: -0.0892
ATAAGAGG: -0.0179

Mixed results
PhoQ, residues 284 288 289 292 302 303 SLANKL  fold induction (PhoP, residues 12 14 15 18 19 AGCRL (Escherichia coli, UniProt P23836); Sort-seq, item: YFP reporter; E. coli; PhoQ-PhoP variant library, added: 10 µM Mg2+; reference: high Mg2+ state, higher = stronger signaling): 39.6

For quick reference, copied from above (sample 2):
TTAGGACTGGATCTCGGTTAGTGCTAG: 0.158 z-score
GACGATTTCGGGTATCGATACGTGCTA: 3.14 z-score
TCTTCCTTTACTTTCTTTTTGTGCTAG: 6.18 z-score
